Experimental data from different studies.
A part holds a random share of what one study measured. Changes are numbered by the printed parent chain.

Study 1 — method: DHFR PCA, deep sequencing; sample: yeast; with: (+)-ABA 0 µM; baseline: wild-type fitted maximum; direction: higher = stronger binding; measurement: relative binding score
Target: ABI1, truncated, D143A, DHFR fusion (Arabidopsis thaliana)
Setting: methotrexate growth selection, single substitutions
Starting sequence: PYL1, truncated, DHFR fusion (Arabidopsis thaliana); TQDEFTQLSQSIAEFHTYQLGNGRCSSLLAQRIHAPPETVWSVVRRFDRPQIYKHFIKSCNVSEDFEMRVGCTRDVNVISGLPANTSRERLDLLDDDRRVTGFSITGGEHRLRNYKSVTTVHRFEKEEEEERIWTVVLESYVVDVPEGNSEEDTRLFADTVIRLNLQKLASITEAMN; partner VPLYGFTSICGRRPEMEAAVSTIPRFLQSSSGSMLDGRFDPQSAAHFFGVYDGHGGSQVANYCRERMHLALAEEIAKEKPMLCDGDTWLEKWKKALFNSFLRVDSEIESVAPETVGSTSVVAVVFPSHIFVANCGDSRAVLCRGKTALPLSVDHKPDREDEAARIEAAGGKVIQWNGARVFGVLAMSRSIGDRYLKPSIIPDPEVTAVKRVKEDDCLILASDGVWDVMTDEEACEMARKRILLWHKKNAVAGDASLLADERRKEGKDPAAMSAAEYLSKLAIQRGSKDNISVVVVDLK
C72F: -0.315%
V44F: -5.81%
F66C: 7.21%
P146F: -7.56%
V70M: -0.849%
R24T: 15.7%
L164E: 5.2%
V70N: 2.37%
K116Q: 25.7%
P83M: 1.2%
P37C: 2.94%
L169H: 5.48%
L112N: 1.76%
D3W: 21.9%
H122W: -8.03%
L8Y: 14.6%
F103Q: -4.63%
G21A: 20.5%
H55K: -0.29%
T120E: -2.08%
L28K: 4.3%
V40K: -1.13%
R99D: -4.94%
R163Y: -15.5%
L112V: -1.87%

Study 2 — method: protein-binding microarray; molecule type: double-stranded DNA, one strand shown; sample: in vitro; tested at: 0.8 µM; setting: whole 60-bp probe, no competitor; direction: higher = stronger binding; measurement: fluorescence intensity
Target: Centromere-binding protein 1, full length, N-terminal tag (CBF1, Saccharomyces cerevisiae, UniProt P17106, residues 1-351)
Chain of UniProt P17106 (whole entry, looked up): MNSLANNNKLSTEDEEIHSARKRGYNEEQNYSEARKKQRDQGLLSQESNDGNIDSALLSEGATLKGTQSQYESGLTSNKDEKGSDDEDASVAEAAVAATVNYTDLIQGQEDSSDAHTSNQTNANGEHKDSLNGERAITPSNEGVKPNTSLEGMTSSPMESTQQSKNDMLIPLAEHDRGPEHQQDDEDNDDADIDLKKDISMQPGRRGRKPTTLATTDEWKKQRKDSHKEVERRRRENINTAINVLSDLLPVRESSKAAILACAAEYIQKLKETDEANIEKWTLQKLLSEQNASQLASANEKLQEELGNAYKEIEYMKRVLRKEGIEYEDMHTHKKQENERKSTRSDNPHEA
CTAGCCTCAAAGAACCCCGTGTGCGGGTATGGCTTCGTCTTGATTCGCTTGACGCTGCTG: 545 a.u.
TGTACGAAGCTATCACACGTATATATAGTAGTTAGGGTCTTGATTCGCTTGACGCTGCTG: 557 a.u.
CTAATAATGGAAGTACACCTGCAGATGCATTTGTTCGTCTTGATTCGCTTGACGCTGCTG: 559 a.u.
GAAACAGCATTAATTATCGTGCCATTACTAAAATAGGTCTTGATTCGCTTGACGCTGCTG: 543 a.u.
CTAATGTGCTAGCGCCACGCGATGGCTGGTTTGTTCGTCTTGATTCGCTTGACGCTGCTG: 514 a.u.
GAATAGGTATACATACATGTGAAAATGTAAGTATAGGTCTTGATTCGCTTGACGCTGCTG: 675 a.u.
GAAACCATATTTATAAATGTGATCATCATGGTCTAGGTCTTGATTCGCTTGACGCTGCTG: 605 a.u.
TGTACGAAGCTATATCACCATCATATAGTAGTTAGGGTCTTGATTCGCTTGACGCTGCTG: 527 a.u.
CCTAACTACTATATTCAACTGACATAGCTTCGTACAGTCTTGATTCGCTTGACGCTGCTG: 565 a.u.
CTAGATTCCTATGTCCTCGTGGAGAACTTTTAGTTCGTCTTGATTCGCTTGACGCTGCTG: 539 a.u.
CTAATCTTTTCTCACCTCACAACGTTTATAGTGTTCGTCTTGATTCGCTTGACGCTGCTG: 536 a.u.
CTACCAAAGCCGGGTCACCTAACTTATGGCCAATTCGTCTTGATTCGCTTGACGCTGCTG: 502 a.u.
GAACAGAAAGCGTGTCACCAATCATGCTAACGTTAGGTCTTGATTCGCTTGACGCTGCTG: 563 a.u.
GAATTAATGTTGTGTTCAGTTGATTGTTATTATTAGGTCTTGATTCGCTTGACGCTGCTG: 525 a.u.
GAAAACACATATTTTCACATGTCAGGAATTTTCTAGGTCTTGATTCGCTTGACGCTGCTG: 798 a.u.
GAAACCTACGTATCTGATGTGTATACTTCTCTTTAGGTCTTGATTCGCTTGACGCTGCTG: 481 a.u.
GAACTTTGAATTACGCACATGCAGAACTCCTGTTAGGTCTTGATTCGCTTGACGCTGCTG: 629 a.u.
CTACTTCGACATGATCACGTAAAACAACAACCATTCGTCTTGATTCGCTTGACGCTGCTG: 725 a.u.
CTAGAACTTAAACAGCTGATCATTCAGAAACGTTTCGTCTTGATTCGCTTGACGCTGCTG: 878 a.u.
CTATGTTAAGATTACATCAGCACTAACAAACAATTCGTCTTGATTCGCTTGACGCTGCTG: 528 a.u.
CCTAACTACTATAATAACGTGATATAGCTTCGTACAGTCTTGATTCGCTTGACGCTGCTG: 1410 a.u.
CTATTGTTTATATATCATCTGATCCATTAGCTGTTCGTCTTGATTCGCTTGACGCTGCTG: 1390 a.u.
CTAATTTTAGCTGATCACCAGAATGACGCAATCTTCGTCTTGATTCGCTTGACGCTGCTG: 568 a.u.
CTACTTTGTATTCCTCATGTGAGAATGTTGGACTTCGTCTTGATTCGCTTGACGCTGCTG: 587 a.u.
CTATCCCAGACGGGAAACGTGTCTCTCGCTTCTTTCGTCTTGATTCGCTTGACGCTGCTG: 535 a.u.

Study 3 — method: protein binding microarray; molecule type: double-stranded DNA, one strand shown; sample: in vitro; tested at: not given; baseline: not given; direction: higher = stronger binding; measurement: E-score
Target: Histone acetyltransferase KAT6A, winged helix 1, GST fusion (KAT6A, Homo sapiens, UniProt Q92794, residues 1-85)
Setting: 8-mer, flanks averaged, mean of 2 arrays, mostly near background
Residues (chain): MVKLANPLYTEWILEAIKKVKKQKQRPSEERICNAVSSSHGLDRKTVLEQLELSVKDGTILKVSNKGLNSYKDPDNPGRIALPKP
TAATTACA: -0.12
AGGGATAT: -0.212
AGCAGCCA: -0.222
AAACCAGT: -0.182
AAAGACGA: -0.0995
GATCGAGC: 0.0363
GCTCAGAC: -0.155
CGCGCACC: 0.4
CGACTTCC: 0.0439
AAAGCAAT: -0.131
ATAATGAC: 0.0947
AGTGCATA: -0.0987
ACAGAACT: -0.133
AACTTGAA: -0.142
AGCGCACT: 0.235
ACACTAAA: -0.113
CGCCAACA: 0.0515
CCCAGGTC: -0.0351
AGGCGATC: -0.0384
TCGGCTAA: 0.253
ATCGCAAG: -0.0633
TACGCACA: 0.0345
GGCGTAAA: 0.174

Study 4 — target: CCNE2, cyclin fold, Cln2 fusion (human); method: yeast growth competition, sequencing; sample: yeast; setting: weak parent motif; baseline: not given; direction: higher = stronger binding; measurement: normalised enrichment score
Starting sequence: PKN2 docking peptide (human); VSAVQKLDFSDTM
VSAVQKLDFSYTM [D11Y]: -0.116
VSAVQKLDFSITM [D11I]: 0.11
VSAVQKLDLSDTM [F9L]: -0.26
VSAVQKLDFCDTM [S10C]: -0.239
VSAVQKLDFSDNM [T12N]: -0.207
VSAVQKSDFSDTM [L7S]: -0.371
TSAVQKLDFSDTM [V1T]: 0.111
VSAVQKPDFSDTM [L7P]: -0.287
VSAVQKLDFSDDM [T12D]: -0.165
PSAVQKLDFSDTM [V1P]: -0.0918
VSAKQKLDFSDTM [V4K]: -0.479
VSAVQKLDFSPTM [D11P]: -0.00549
VSAVQKLDASDTM [F9A]: -0.0526
VSAVQKLDFSLTM [D11L]: 0.672
VSAVQKLMFSDTM [D8M]: 0.694
VSTVQKLDFSDTM [A3T]: 0.139
VSAVQKLDESDTM [F9E]: -0.24
VSAVQKLGFSDTM [D8G]: -0.176
VSAVQKLDFSDPM [T12P]: 0.812
VSAVQKLDFSDLM [T12L]: 0.456
FSAVQKLDFSDTM [V1F]: 0.456

Study 5 — method: RNA Bind-n-Seq; molecule type: RNA; sample: in vitro; tested at: 365 nM; baseline: no-protein control; direction: higher = stronger binding; measurement: RBNS enrichment (R)
Target: RNA binding protein fox-1 homolog 2, RRM domain, GST-SBP tag (RBFOX2, Homo sapiens, UniProt O43251-10, residues 100-194)
Setting: natural RNA segment, single round, ends assumed
Residues (chain): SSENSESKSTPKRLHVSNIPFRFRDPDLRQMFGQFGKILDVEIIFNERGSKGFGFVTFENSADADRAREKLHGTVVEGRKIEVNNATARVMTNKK
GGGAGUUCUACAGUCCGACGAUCUGGAACUGAAACUACAACCAAUGUGCUCCGCUGGGCAAUUCUUUUCAUGGCCCUUUAUCCUAAUAUUCAAGGACAAGUUCAUAAAGAGAUUGAUUUAAUUGUGGGCCACAUGGAAUUCUCGGGUGCCAA: 0.391
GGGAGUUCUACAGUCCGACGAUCCAGGAAUACCCAGGGUGGUGGGACUGACAUCAGGGGAGUGGCGUCUGCCCACCCCCCACCCUGUCCCUCCGGGGGUGAACCAGCCAGGCUGCACUACAAUGUCCACAGGCUGGAAUUCUCGGGUGCCAA: 0.19
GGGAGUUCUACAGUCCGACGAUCAGGAUCAUAUAAAAUAUGAAGAAAUAGCCAUAUUAAAUUUUUUGCUGUCAUUUGCCUCCGCAACAAAGCGAGUGUAAGUGUCUAAUGCUGAAGCUAGAGUGAACUCAUGUUGGAAUUCUCGGGUGCCAA: 0.299
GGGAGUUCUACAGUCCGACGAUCGAAGUCCGACGGCUGGAAACCCAAGUGUUUGAUGGGCAGCAAGGCCCGAGCGAGCCCGUGAAUCUACCUGACAACCAAGCUGUGACAUUCAAAGAGACAAGGGACUCGUUUGGAAUUCUCGGGUGCCAA: 1.92
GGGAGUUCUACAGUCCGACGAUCAAACACCUUCUGAUGGAGCUGUUGCCUGCAGGCCACUGGUCUUUGGGAAUUUUCAAUAAAGUGCUUGCGAGGAAUCUCCUAUGACCAUGUGGGGCUGGGUGUGAAAGAGGUGGAAUUCUCGGGUGCCAA: 1.77
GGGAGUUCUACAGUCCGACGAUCUACUUUAUAUUUUCUAUAUUUGUAACUUUGCAUGUUCUUGUUUUGUUAUAUAAAAAAAUUGUAAAUGUUUAAUAUCUGACUGAAAUUAAACGAGCGAAGAUGAGCACCACUGGAAUUCUCGGGUGCCAA: 0.984
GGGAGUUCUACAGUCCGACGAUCGAGCCAAGGACCACAGAGCCUCAGCCAGCCCAGGAUCCGUCCUCAUUUUAUUGGUGAUGAUGAAUGGGAAUGAAAUCAGGGGGCUGUCUACUAGAGCCUGGAAUAAAUAUUGGAAUUCUCGGGUGCCAA: 0.407
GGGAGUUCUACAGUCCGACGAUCUGAAAAACACUAAUUCUCUUCAGUCUUCUUUAGUGAAGACUUACACUUGCAAAGUCUGUGCCGCCUAUUCUGACUCAUGCUGUCUAGGUGCCCAGUGUAUGAGAGCCACUUGGAAUUCUCGGGUGCCAA: 0.323
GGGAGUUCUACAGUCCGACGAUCAUAUAUUUUGCUGUGUAUAAAUUGAUAUUUUGCUAUGCAACUCCUGUAAUUGAAUUUGUAUAAUGCAGGCACUUUCUAAUUUAUUAGAGAUUAUGGAUCAGUUCUGACAUUGGAAUUCUCGGGUGCCAA: 1.01
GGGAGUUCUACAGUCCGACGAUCUCUUCUUCAGUUCAUUAAAAGUAACUACUAAGGAAAGGUUAAAAACUUCCCCUCAAAAAGGAAUCAACCCCAGGAAGUAAUUAUUUACAACGAUUUUCCCAAAUUUUGUAUGGAAUUCUCGGGUGCCAA: 0.39
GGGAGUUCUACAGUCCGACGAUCAAUACUCAAAGAAAGAAAAGUGGCAGCACUUAUAUUAGUUUUAUAACAGGAUAAAGUCUUGUGUAUAGCAAAGUAGUUGCAUCUGUUUAUUUUCUAUUUAUUAUUGUUACUGGAAUUCUCGGGUGCCAA: 0.463
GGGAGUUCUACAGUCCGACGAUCAGAUCAGGAUUAUUAGUAACAAUUCUAGUUUUUUCCUCCCACCUUCUCCCUCUCCUCUCUCCUCUAUGAUUUUCUCUCUUUCCCCCUCCCUUCCUGUACAUUUUCCUCCAUGGAAUUCUCGGGUGCCAA: 1.07

Repeated from above (study 2):
TGTACGAAGCTATATCACCATCATATAGTAGTTAGGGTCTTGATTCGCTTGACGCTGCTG: 527 a.u.
CCTAACTACTATATTCAACTGACATAGCTTCGTACAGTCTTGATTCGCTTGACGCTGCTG: 565 a.u.
CTAGATTCCTATGTCCTCGTGGAGAACTTTTAGTTCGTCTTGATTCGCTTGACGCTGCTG: 539 a.u.
CTAATCTTTTCTCACCTCACAACGTTTATAGTGTTCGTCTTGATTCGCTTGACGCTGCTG: 536 a.u.
CTACCAAAGCCGGGTCACCTAACTTATGGCCAATTCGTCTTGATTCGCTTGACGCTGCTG: 502 a.u.
GAACAGAAAGCGTGTCACCAATCATGCTAACGTTAGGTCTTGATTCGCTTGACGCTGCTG: 563 a.u.
